Published values collected from several papers.
Each numbered part is a random draw from the data of one study; scales do not carry over between parts.

Sample 1 — technique: protein-binding microarray; molecule type: double-stranded DNA, one strand shown; matrix: in vitro; concentration: 940 nM top; setting: 60-bp whole probe; added: salmon DNA 0.4 mg/ml; relative to: random background probes; reading: higher = stronger binding; shared flanks, not repeated: GCCTAGCAC … GTCTTGATTCGCTTGACGCTGCTG
Target: Interferon regulatory factor 5, full length, phosphomimetic (IRF5, Homo sapiens, UniProt Q13568-2, residues 1-514, S451D/S453D/S456D/S462D)
Oligonucleotide | fitted relative affinity
CTAATTTTTACTTTCTGAATGTGCTAG | 2.05 z-score
CTAGGTATCGGTCTCGGTTAGTGCTAG | 8.62 z-score
GTCGGACTGGGTTTCGGGACGTGCTAG | 3.58 z-score
TTAGGACTGGGTTTCGGTTAGTGCTAG | 6.63 z-score
TTGGATATCGGGTTTCGATTAGTGCTA | 5.35 z-score
GTCGGTTTCCTTATCCTGACGTGCTAG | 3.3 z-score
TTTTTTTTCATCATTGCCTAGTGCTAG | 1.31 z-score

Sample 2 — technique: RNA Bind-n-Seq; molecule type: RNA; matrix: in vitro; concentration: 1 µM; setting: whole 134-nt RNA, ends assumed; added: 150 mM KCl; relative to: input library; reading: higher = stronger binding
Target: Ras GTPase-activating protein-binding protein 1, RRM domain (G3BP1, Homo sapiens, UniProt Q13283)
Chain of UniProt Q13283 (whole entry, looked up): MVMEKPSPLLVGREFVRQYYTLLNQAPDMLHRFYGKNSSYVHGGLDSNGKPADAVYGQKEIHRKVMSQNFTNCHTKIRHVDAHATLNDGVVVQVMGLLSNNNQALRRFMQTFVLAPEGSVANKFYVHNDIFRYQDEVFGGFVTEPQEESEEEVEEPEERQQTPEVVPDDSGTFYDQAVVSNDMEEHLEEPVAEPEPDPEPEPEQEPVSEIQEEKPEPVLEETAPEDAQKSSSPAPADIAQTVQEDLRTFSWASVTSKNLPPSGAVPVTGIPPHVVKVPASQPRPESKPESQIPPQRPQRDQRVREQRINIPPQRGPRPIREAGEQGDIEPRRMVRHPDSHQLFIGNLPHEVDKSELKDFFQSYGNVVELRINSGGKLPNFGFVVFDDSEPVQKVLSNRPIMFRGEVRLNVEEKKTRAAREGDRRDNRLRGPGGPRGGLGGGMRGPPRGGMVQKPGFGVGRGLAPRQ
Shared flanks, not repeated: GGGAGUUCUACAGUCCGACGAUC … UGGAAUUCUCGGGUGUCAAGG
Oligonucleotide | log2 enrichment
GCAGGAAGUAAAAACAAAUGGAAAUGCUUCGGAUAGUGGCAGGGGUGGGGGUUGCUAAGGAAAGGGUGGGAUGGGUGUGGGUAAAGAGUU | 0.968
CACAGACAACACGCACCCACACAGACACAGAGGGAAGGGGUUGGGAUGGGGACAGGGUAAACAGCAGGGCGGGGUAGGACCCCAGCCCCU | -0.131
AGUCCUGUGCUACACAUCGUAUGUACCGAAUCGUGUGUGUGUGUGUGUGUGUGUGUGUAAAGUAUUAUGUUACGCCGUUCGGAUCUGCAC | 0.118
UGGGAGGUGGAUUUUGUUUAUUUUUUUAGCUCAUUUCCAGGGGUGGGCAUUUUUUUUUAAUAUGUGUCAUGAAUAAAGUUGUUUUUGAAA | 1.54
CACAGACAACACGCACCCACACAGACACAGAGGGAAGGGGUUGGGAUGGGGACAGGUUGCACAGCAGGGCGGGGUAGGACCCCAGCCCCU | -0.0345
AGUCCUGUGCUACACAUCGUAUGUACCGAAUCGGGGUUUUUGGGGUGGGGUUUGGGGAAAGUAUUAUGUUACGCCGUUCGGAUCUGCACU | 0.522
UCAAGUCCUGUGCUACACAUCGUAUGUACCGAAUCGGUUUGGUUUGGGUUUGGGGAAAGUAUUAUGUUACGCCGUUCGGAUCUGCACUUC | -0.237

Sample 3 — technique: protein binding microarray; molecule type: double-stranded DNA, one strand shown; matrix: in vitro; concentration: not given; relative to: not given; reading: higher = stronger binding
Target: Histone acetyltransferase KAT6A, winged helix 2, GST fusion (KAT6A, Homo sapiens, UniProt Q92794, residues 85-181)
Setting: 8-mer, flanks averaged, mean of 2 arrays, mostly near background
Construct (chain): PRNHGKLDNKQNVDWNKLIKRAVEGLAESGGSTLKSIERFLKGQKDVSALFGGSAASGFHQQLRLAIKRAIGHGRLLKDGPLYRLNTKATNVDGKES
Oligonucleotide | E-score
AGTCCTCG | -0.18
CCACTGTC | -0.125
AGCCGAAG | 0.0682
GAGCGAGA | 0.125
ATGTGGGC | -0.0639
AACTCGGA | 0.0444
TGCAAGCA | 0.0133
ATCACTGC | 0.23

Further values, each from its own experiment
Molecule | target | assay | system | conditions | how to read | endpoint | value
PhoQ, residues 284 288 289 292 302 303 DDMDFR | PhoP, residues 12 14 15 18 19 NMSSL (Escherichia coli, UniProt P23836) | Sort-seq, item: YFP reporter | E. coli | PhoQ-PhoP variant library, added: 10 µM Mg2+ | relative to: high Mg2+ state, higher = stronger signaling | fold induction | 1.37

A few entries again (further values, each from its own experiment):
Molecule | target | assay | system | conditions | how to read | endpoint | value
PhoQ, residues 284 288 289 292 302 303 DDMDFR | PhoP, residues 12 14 15 18 19 NMSSL (Escherichia coli, UniProt P23836) | Sort-seq, item: YFP reporter | E. coli | PhoQ-PhoP variant library, added: 10 µM Mg2+ | relative to: high Mg2+ state, higher = stronger signaling | fold induction | 1.37
